Measurements of several laboratories.
Each line is one published result; not all experiments were run side by side. Several values in a cell are separate wells, animals, samples, runs or records. ± marks the error that the study gave.
Sequence of UniProt P20231 (whole entry, looked up): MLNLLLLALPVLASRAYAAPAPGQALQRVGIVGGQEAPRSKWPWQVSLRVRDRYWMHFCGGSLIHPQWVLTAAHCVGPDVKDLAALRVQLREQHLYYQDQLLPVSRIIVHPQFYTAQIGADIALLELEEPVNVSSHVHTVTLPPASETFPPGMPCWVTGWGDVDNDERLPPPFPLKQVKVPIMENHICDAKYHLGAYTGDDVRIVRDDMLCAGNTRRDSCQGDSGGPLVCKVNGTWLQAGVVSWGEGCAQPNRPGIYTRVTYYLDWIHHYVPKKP
Sequence of UniProt Q96RJ0 (whole entry, looked up): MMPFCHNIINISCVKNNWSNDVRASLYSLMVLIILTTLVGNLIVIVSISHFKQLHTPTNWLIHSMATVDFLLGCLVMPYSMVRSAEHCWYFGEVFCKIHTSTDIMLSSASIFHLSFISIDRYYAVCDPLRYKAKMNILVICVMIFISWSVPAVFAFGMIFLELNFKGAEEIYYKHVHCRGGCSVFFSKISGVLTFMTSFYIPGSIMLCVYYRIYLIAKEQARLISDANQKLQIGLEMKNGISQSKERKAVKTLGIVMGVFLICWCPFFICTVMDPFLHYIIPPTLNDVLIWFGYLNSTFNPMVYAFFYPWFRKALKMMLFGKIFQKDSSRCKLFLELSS
Sequence of UniProt P23975 (whole entry, looked up): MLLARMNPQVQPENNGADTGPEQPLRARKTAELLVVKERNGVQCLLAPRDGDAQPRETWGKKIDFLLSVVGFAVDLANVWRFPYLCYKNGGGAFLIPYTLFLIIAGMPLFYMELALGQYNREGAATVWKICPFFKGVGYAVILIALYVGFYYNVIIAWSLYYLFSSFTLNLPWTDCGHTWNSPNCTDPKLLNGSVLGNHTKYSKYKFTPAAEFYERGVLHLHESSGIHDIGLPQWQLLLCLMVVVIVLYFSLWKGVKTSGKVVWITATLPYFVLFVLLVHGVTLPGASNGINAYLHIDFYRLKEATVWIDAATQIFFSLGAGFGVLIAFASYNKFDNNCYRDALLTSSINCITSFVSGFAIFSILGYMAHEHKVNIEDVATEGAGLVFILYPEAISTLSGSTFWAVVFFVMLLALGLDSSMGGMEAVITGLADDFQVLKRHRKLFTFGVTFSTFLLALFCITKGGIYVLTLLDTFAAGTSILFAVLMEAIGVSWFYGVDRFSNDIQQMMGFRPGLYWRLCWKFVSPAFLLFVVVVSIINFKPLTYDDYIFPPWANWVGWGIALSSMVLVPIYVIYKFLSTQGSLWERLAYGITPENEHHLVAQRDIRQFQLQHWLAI
Sequence of UniProt Q8WTS6 (whole entry, looked up): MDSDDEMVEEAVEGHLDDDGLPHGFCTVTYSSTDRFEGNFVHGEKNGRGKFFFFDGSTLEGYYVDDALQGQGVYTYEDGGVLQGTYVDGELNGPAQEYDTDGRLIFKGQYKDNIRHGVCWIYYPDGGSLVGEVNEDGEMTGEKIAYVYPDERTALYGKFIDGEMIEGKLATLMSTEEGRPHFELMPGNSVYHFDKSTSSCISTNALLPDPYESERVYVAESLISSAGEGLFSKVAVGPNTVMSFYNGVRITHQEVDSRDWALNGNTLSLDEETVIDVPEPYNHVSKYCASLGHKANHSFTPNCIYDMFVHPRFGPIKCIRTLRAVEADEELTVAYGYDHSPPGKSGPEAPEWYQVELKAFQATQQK
Sequence of UniProt O94925 (whole entry, looked up): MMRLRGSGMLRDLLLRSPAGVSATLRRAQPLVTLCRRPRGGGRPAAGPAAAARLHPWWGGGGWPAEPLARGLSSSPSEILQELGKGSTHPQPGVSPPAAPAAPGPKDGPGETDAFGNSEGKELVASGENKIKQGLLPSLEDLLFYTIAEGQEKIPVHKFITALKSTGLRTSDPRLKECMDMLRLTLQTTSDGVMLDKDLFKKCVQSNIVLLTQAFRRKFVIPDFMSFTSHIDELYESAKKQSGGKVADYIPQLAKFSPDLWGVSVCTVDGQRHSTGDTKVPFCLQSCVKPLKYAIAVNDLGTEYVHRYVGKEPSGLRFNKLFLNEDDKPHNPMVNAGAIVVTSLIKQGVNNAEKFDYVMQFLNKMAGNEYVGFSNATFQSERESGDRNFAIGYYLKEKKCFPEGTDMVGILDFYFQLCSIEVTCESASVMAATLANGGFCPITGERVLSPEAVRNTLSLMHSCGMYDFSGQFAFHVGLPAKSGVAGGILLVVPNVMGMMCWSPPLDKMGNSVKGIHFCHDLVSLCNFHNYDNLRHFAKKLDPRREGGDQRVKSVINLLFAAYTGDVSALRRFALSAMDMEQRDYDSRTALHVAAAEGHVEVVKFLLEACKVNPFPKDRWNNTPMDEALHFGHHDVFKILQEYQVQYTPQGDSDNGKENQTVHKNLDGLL
Sequence of UniProt P08684 (whole entry, looked up): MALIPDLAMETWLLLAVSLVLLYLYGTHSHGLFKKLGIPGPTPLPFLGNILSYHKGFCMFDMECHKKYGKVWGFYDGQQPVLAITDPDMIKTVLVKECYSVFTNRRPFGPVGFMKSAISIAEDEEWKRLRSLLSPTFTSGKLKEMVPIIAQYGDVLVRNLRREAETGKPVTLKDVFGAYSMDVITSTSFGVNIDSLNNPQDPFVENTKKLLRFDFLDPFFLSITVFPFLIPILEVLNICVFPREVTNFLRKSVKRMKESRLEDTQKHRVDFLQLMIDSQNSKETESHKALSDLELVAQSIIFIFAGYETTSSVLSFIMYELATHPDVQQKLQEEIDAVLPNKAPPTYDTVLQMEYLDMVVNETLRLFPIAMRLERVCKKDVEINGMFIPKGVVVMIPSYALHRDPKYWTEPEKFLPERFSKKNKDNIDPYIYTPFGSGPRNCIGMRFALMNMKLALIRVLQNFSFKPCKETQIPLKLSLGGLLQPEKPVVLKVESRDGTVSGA
Sequence of UniProt P15056 (whole entry, looked up): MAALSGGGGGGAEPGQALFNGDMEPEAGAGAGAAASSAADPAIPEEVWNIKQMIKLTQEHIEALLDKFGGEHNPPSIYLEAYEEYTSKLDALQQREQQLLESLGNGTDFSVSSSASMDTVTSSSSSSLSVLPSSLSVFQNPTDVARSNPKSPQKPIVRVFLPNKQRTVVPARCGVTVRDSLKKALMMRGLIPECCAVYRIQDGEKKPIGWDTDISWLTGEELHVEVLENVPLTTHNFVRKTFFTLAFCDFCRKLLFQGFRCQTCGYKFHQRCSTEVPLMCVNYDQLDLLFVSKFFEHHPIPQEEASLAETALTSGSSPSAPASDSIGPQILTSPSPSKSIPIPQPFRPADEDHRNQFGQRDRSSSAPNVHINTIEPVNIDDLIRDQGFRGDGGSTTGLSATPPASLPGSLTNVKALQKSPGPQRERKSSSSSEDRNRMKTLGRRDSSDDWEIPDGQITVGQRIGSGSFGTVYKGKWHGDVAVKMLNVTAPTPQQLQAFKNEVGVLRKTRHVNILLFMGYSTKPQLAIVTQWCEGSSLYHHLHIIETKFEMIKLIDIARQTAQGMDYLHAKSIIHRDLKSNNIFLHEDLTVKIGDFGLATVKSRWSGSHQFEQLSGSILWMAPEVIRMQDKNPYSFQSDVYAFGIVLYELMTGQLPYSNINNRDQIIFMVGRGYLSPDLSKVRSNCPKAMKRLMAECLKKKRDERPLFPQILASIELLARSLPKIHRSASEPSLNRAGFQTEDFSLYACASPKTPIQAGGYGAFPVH
Sequence of UniProt P56817 (whole entry, looked up): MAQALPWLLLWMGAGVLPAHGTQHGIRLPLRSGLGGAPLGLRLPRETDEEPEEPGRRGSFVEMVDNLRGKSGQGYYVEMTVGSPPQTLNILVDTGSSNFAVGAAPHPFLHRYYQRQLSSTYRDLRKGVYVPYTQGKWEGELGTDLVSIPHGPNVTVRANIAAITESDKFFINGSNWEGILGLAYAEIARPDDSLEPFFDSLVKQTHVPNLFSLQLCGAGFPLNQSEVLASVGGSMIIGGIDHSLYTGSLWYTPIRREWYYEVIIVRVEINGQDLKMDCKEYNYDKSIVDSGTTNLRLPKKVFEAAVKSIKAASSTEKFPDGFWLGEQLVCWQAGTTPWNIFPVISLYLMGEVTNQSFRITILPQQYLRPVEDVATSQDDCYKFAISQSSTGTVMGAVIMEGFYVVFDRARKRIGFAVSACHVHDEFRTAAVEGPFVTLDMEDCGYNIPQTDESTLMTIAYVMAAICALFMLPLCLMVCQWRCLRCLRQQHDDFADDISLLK
Sequence of UniProt P70343 (whole entry, looked up): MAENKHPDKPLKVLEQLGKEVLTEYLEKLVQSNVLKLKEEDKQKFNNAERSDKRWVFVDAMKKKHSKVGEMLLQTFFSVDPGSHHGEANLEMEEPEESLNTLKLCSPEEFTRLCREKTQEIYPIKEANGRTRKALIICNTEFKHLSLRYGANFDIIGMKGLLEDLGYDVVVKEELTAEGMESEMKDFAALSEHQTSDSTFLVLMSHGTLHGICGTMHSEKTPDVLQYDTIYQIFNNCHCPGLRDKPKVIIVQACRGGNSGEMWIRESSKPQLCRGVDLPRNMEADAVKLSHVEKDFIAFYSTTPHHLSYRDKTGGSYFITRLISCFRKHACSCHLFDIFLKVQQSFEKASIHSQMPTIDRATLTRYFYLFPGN
Sequence of UniProt P04228 (whole entry, looked up): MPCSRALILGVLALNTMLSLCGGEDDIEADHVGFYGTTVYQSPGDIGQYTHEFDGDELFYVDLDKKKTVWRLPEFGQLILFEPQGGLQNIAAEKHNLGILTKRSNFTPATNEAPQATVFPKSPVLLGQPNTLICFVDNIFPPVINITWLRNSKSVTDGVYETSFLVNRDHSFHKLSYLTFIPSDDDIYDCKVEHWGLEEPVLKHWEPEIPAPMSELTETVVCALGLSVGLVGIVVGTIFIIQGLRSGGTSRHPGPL

SMILES | target | test | test system | setting | IC50
CC(C)C[C@H](NC(=O)CN)C(=O)N[C@@H](CC(=O)O)C(=O)N[C@@H](CC(N)=O)C(=O)N[C@@H](Cc1ccc(O)cc1)C(=O)N[C@@H](CCCNC(=N)N)C(=O)NCC(=O)N[C@@H](Cc1ccc(O)cc1)C(=O)N[C@@H](CO)C(=O)N[C@@H](CC(C)C)C(=O)NCC(=O)N[C@@H](CC(N)=O)C(N)=O | MHC class II I-A g7 (Mus musculus, UniProt P04228+Q31135) | peptide binding, competitor, competition ELISA | – | at least 24 h, pH 7.0, room temperature, with: biotinylated HEL 10-23 200 nM | > 50 µM
O=C1NC(=O)C(=Cc2ccc(-c3ccc(Br)cc3)o2)S1 | BRAF (Homo sapiens, UniProt P15056) | enzyme activity, inhibitor, ELISA | – | – | 4.99 µM
CC(C)C[C@@H]1NC(=O)[C@H](C(C)C)NC(=O)[C@H](C)NC(=O)[C@H](Cc2ccc(O)cc2)NC(=O)[C@H](CCC(N)=O)NC(=O)[C@H](CC(C)C)NC(=O)[C@@H](Cc2ccc(O)cc2)NC(=O)CSC[C@@H](C(N)=O)NC(=O)[C@H](CCC(=O)O)NC(=O)[C@H](CCCNC(=N)N)NC(=O)[C@H](CCCNC(=N)N)NC(=O)[C@H](CCCCN)NC(=O)[C@H](Cc2c[nH]cn2)NC(=O)[C@H](CCCNC(=N)N)NC1=O | Cathepsin B (CTSB, Homo sapiens, UniProt P07858) | enzyme activity, inhibitor | – | – | > 10 µM
CCC[C@@H]1NC(=O)[C@H]([C@@H](C)O)NC(=O)[C@H](CCCNC(=N)N)NC(=O)CNC(=O)CC[C@@H](C(=O)N[C@@H](C)C(=O)N[C@@H](CCCNC(=N)N)C(=O)N[C@@H](CCCCN)C(=O)N[C@@H](CO)C(=O)N[C@H](C(=O)NCC(=O)NCC(N)=O)[C@@H](C)O)NC(=O)[C@H](CCC(N)=O)NC1=O | SETD7 (Homo sapiens, UniProt Q8WTS6) | H3K4 peptide methylation, inhibitor, MALDI-TIMS-TOF MS | – | 30 min, 37 °C, with: H3K4 peptide 10 µM, SAM 30 µM | 83.1 µM
N#Cc1c(C(F)(F)F)cc(-c2ccc(Cl)cc2)nc1SCC(=O)N1CCCC1 | TAAR1 (Homo sapiens, UniProt Q96RJ0) | – | – | – | 0.357 µM and < 0.5 µM
CC(=O)N[C@@H](CC(C)C)C(=O)N[C@@H](CCC(=O)O)C(=O)N[C@@H](CO)C(=O)N[C@@H](CC(=O)O)C(=O)CCl | Caspase-4 (Casp4, Mus musculus, UniProt P70343) | enzyme activity, inhibitor, fluorescence | – | – | 70.4 µM
N[C@H](CC[As](=O)(O)O)C(=O)O | GLS (Homo sapiens, UniProt O94925) | enzyme activity, inhibitor | – | – | 250 µM
O=C(NCCN1CCC2(CC1)C(=O)NCN2Cc1ccccn1)c1ccc2ccccc2c1 | Phospholipase D1 (Homo sapiens, UniProt Q13393) | enzyme activity, inhibitor | – | – | 2.65 µM
CCC(C)SSc1ncc[nH]1 (centres unmarked) | Genome polyprotein, 2A protease (Human enterovirus 71, UniProt B9VUU3) | protease activity, inhibitor, FRET | Enterovirus A71 | DTT 4 mM | > 60 µM
CC(C)C[C@H](c1ccc(Cl)cc1)[C@H]1CCCCN1 | SLC6A2 (Homo sapiens, UniProt P23975) | inhibitor | – | – | 0.21 ± 0.024 µM
COc1ccc(/C=C/C(=O)c2ccc(N3CCNCC3)cc2)cc1 | Beta-secretase 1 (BACE1, Homo sapiens, UniProt P56817) | enzyme activity, inhibitor, fluorescence | – | with preincubation | 6.72 µM
N=C(N)NC(=O)c1ccc(C(=O)NCCCC[C@H](NC(=O)CNC(=O)CCC(=O)NN)C(=O)N[C@@H](Cc2c[nH]c3ccccc23)C(=O)N[C@@H](CCCCN)C(N)=O)[nH]1 | Tryptase beta-2 (TPSB2, Homo sapiens, UniProt P20231) | – | – | pH 7.4 | 24.5 µM and ~25 µM
C1CCc2c(c(N3CCOCC3)nc3sc4c(N5CCNCC5)nnnc4c23)C1 | Beta-glucuronidase (uidA, Escherichia coli, UniProt P05804) | enzyme activity, inhibitor | – | – | 0.108 µM
Cc1ccc2nc(C)c(C(=O)NCc3cccs3)n2c1 | Cytochrome P450 3A4 (CYP3A4, Homo sapiens, UniProt P08684) | enzyme activity, inhibitor | – | with: VR substrate | > 50 µM

Repeated from above:
SMILES | target | test | test system | setting | IC50
CCC[C@@H]1NC(=O)[C@H]([C@@H](C)O)NC(=O)[C@H](CCCNC(=N)N)NC(=O)CNC(=O)CC[C@@H](C(=O)N[C@@H](C)C(=O)N[C@@H](CCCNC(=N)N)C(=O)N[C@@H](CCCCN)C(=O)N[C@@H](CO)C(=O)N[C@H](C(=O)NCC(=O)NCC(N)=O)[C@@H](C)O)NC(=O)[C@H](CCC(N)=O)NC1=O | SETD7 (Homo sapiens, UniProt Q8WTS6) | H3K4 peptide methylation, inhibitor, MALDI-TIMS-TOF MS | – | 30 min, 37 °C, with: H3K4 peptide 10 µM, SAM 30 µM | 83.1 µM
N#Cc1c(C(F)(F)F)cc(-c2ccc(Cl)cc2)nc1SCC(=O)N1CCCC1 | TAAR1 (Homo sapiens, UniProt Q96RJ0) | – | – | – | 0.357 µM and < 0.5 µM
